Measured values from different studies.
Lines come from different studies, so protocols differ. Numbers after ± are the reported error.
UCHL1: Ubiquitin carboxyl-terminal hydrolase isozyme L1 (UCHL1, Homo sapiens, UniProt P09936)
Sequence of UniProt P09936 (whole entry, looked up): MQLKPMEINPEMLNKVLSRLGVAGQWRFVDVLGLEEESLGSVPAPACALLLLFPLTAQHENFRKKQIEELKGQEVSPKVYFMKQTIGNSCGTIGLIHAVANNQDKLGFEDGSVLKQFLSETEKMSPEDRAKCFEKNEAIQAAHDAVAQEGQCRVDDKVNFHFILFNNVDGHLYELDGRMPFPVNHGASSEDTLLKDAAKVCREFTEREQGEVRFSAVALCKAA

Compound	tested on	assay	test system	setting	how to read	quantity	result
NC(=O)c1nnn([C@@H]2C(F)=C(CO)[C@@H](O)[C@H]2O)c1N	dengue virus type 2	viral replication, luciferase reporter	BHK-D2-Rluc	48 h	–	EC50	> 100 µM
CN1CCN(c2ccc(-c3ccc4nncc(Nc5cnccn5)c4c3)cc2)CC1	Leishmania donovani	–	B10R cells	–	–	EC50	> 10 µM
CCCC(=O)OCSc1ccccc1C(=O)NCCn1ccc(=O)c2cc([N+](=O)[O-])ccc21	HIV-1	virus-induced cytopathic effect, inhibitor, XTT	CEM-SS, RF	6 days	–	EC50	0.54 ± 0.1 µM
OCC1=C(F)[C@@H](n2nnc3c(NO)ncnc32)[C@H](O)[C@@H]1O	dengue virus type 2	viral replication, luciferase reporter	BHK-D2-Rluc	48 h	–	EC50	> 100 µM
O=c1[nH]cc(F)c(=O)[nH]1	Toxoplasma gondii	parasite growth	HFF, bradyzoite, glutamine-induced	–	–	EC50	1.62 µM
CCCC(=O)OCSc1ccccc1C(=O)NCCn1cc(C(=O)NCc2cccc(C)n2)c(=O)c2cc3c(cc21)OC(F)(F)O3	HIV-1	viral replication	human PBMC, BCF01 (CCR5-tropic)	–	–	EC50	7.79 ± 1.64 µM
NC(=O)c1ncn([C@@H]2O[C@H](CO)[C@@H](O)[C@H]2O)n1	dengue virus type 2	viral replication, luciferase reporter	BHK-D2-Rluc	48 h	–	EC50	21.7 µM
O=[N+]([O-])c1ccc2c(c1)S(=O)(=O)C=C2	Toxoplasma gondii	parasite growth, luciferase reporter	HFF, tachyzoite	72 h	–	EC50	4.34 µM
Nc1ccn(C[C@@H](CO)OCP(=O)(O)O)c(=O)n1	varicella-zoster virus	cytopathic effect	HFF, Ellen	14 d	–	EC50	0.52 µM
Cc1cc(OC(C)C)ccc1C(=O)C(C)(C)NC(=O)c1sccc1C	Parastagonospora nodorum	mycelial growth	PSA medium	20 °C, suspension concentrate 400 g/L	–	EC50	0.47 µg/mL
CN1CCN(c2ncc(-c3ccc4c(Nc5ncccn5)cnnc4c3)cn2)CC1	Leishmania donovani	–	B10R cells	–	–	EC50	8.9 µM
CC(=O)[C@]1(O)Cc2c(O)c3c(c(O)c2[C@@H](O[C@H]2C[C@H](N)[C@H](O)[C@H](C)O2)C1)C(=O)c1ccccc1C3=O	Toxoplasma gondii	parasite growth, luciferase reporter	HFF, tachyzoite	72 h	–	EC50	0.188 µM
CN1CCCN(c2ncc(-c3ccc4nncc(Nc5cnccn5)c4c3)cn2)CC1	Leishmania donovani	–	B10R cells	–	–	EC50	> 10 µM
O=C(CCl)Nc1cc(-c2ccccc2)nn1-c1ccccc1	UCHL1	covalent, intact protein LC-MS	–	12.5 µM	–	labelling	12.4%
O=C1c2ccccc2C(=O)c2c(NCCc3ccc(O)cc3)ccc(NCCc3ccc(O)cc3)c21	Toxoplasma gondii	bradyzoite growth	–	glutamine-induced bradyzoites, glucose-free medium	–	EC50	4.48 µM
CN1CCN(S(=O)(=O)c2ccc(-c3ccc4nncc(Nc5ncc(Cl)cn5)c4c3)cc2)CC1	Leishmania donovani	–	B10R cells	–	–	EC50	0.07 µM
CCCC(=O)OCSc1ccccc1C(=O)NCC(=O)NCCn1ccc(=O)c2cc3c(cc21)OCO3	HIV-1	virus-induced cytopathic effect, inhibitor, XTT	CEM-SS, RF	6 days	–	EC50	75.4 ± 9.2 µM

Compound	tested on	assay	test system	setting	how to read	quantity	result
CN1CCN(c2ccc(-c3ccc4nncc(Nc5ncccn5)c4c3)cc2)CC1	Leishmania donovani	–	B10R cells	–	–	EC50	2.5 µM
CCCC(=O)OCSc1ccccc1C(=O)NCCC(=O)N1CCN(C(=O)Cn2ccc(=O)c3cc4c(cc32)OCO4)CC1	HIV-1	virus-induced cytopathic effect, inhibitor, XTT	CEM-SS, RF	6 days	–	EC50	> 100 µM
Cc1ccc(Nc2cnnc3ccc(-c4ccc(N5CCCN(C)CC5)cc4)cc23)cn1	Leishmania donovani	–	B10R cells	–	–	EC50	4.9 µM
Cc1cccc(CNC(=O)c2cn(CCNC(=O)c3ccccc3Sc3c([N+](=O)[O-])ncn3C)c3cc4c(cc3c2=O)OC(F)(F)O4)n1	HIV-1	viral cytopathic effect, XTT	CEM-SS, RF	with: glutathione 2 mM	–	EC50	8.2 ± 2.62 µM
CN1CCN(c2ncc(-c3ccc4nncc(Nc5ncccn5)c4c3)cn2)CC1	Leishmania donovani	–	B10R cells	–	–	EC50	> 10 µM
O=C(c1ccc(Nc2nccc(-c3cc4ccccc4s3)n2)cc1)N1CCC(N2CCCC2)CC1	Toxoplasma gondii	parasite growth	HFF, bradyzoite, alkaline-induced	–	–	EC50	3.44 µM
Cc1cn([C@H]2C[C@H](N=[N+]=[N-])[C@@H](CO)O2)c(=O)[nH]c1=O	HIV-1	viral cytopathic effect, XTT	CEM-SS, RF	no added glutathione	–	EC50	0.02 ± 0.01 µM
C[n+]1cc2c3c(ccc2c2ccc4cc5c(cc4c21)OCO5)OCO3	Toxoplasma gondii	parasite growth	HFF, bradyzoite, alkaline-induced	–	–	EC50	1.45 µM
CCCC(=O)OCSc1ccccc1C(=O)NCCOc1ccnc2ccc(F)cc12	HIV-1	virus-induced cytopathic effect, inhibitor, XTT	CEM-SS, RF	6 days	–	EC50	> 15.5 µM
O=Cc1c[nH]c2ccc(S(=O)(=O)N3CCCCC3)cc12	UCHL1	covalent, intact protein LC-MS	–	12.5 µM	–	labelling	24.3%
Cc1ccc(S(=O)(=O)/C=C/C#N)cc1	Toxoplasma gondii	parasite growth	HFF, bradyzoite, alkaline-induced	–	–	EC50	5.07 µM
CC1CCc2c(sc(NC(=O)Cn3cnc([N+](=O)[O-])n3)c2C(N)=O)C1 (stereo not shown)	Trypanosoma cruzi	reporter translation, Renilla luciferase mRNA translation	cell-free extract	40 µM	relative to: DMSO	inhibition	-22.9%
O=C(Nc1ccncc1)c1cc([N+](=O)[O-])ccc1Cl	Toxoplasma gondii	tachyzoite growth, luciferase	ME49-Fluc, type II	–	–	EC50	0.87 µM
O=c1[nH]cnc2c1nnn2[C@@H]1C(F)=C(CO)[C@@H](O)[C@H]1O	dengue virus type 2	viral replication, luciferase reporter	BHK-D2-Rluc	48 h	–	EC50	> 100 µM
COc1ccc(Nc2cnnc3cc(-c4cnc(N5CCCN(C)CC5)nc4)ccc23)cc1Cl	Leishmania donovani	–	B10R cells	–	–	EC50	9.6 µM
CCCC(=O)OCSc1ccccc1C(=O)NCCn1ccc(=O)c2cc(OC)ccc21	HIV-1	viral replication, measured: reverse transcriptase	human PBMC, 92HT599	7 days	–	EC50	1.11 ± 0.93 µM
CC(C)=CCCC(C)CN(C)CCc1ccccn1 (stereo not shown)	Trypanosoma cruzi	reporter translation, Renilla luciferase mRNA translation	cell-free extract	40 µM	relative to: DMSO	inhibition	-1.4%

A few entries again:
Compound	tested on	assay	test system	setting	how to read	quantity	result
O=C(Nc1ccncc1)c1cc([N+](=O)[O-])ccc1Cl	Toxoplasma gondii	tachyzoite growth, luciferase	ME49-Fluc, type II	–	–	EC50	0.87 µM
O=c1[nH]cnc2c1nnn2[C@@H]1C(F)=C(CO)[C@@H](O)[C@H]1O	dengue virus type 2	viral replication, luciferase reporter	BHK-D2-Rluc	48 h	–	EC50	> 100 µM
COc1ccc(Nc2cnnc3cc(-c4cnc(N5CCCN(C)CC5)nc4)ccc23)cc1Cl	Leishmania donovani	–	B10R cells	–	–	EC50	9.6 µM
CCCC(=O)OCSc1ccccc1C(=O)NCCn1ccc(=O)c2cc(OC)ccc21	HIV-1	viral replication, measured: reverse transcriptase	human PBMC, 92HT599	7 days	–	EC50	1.11 ± 0.93 µM
